Measurements from different studies.
Each line is one published result; not all experiments were run side by side. Values joined by “and” are separate records of one study, mostly repeats; a detail may differ. Numbers after ± are the reported error.

`C[C@@H](Oc1ccc(S(C)(=O)=O)cc1C(=O)N1C[C@@H]2C[C@]2(c2cc(C(F)(F)F)on2)C1)C(F)(F)F` gave a %AUC extrapolated of 28.2% (healthy young humans; oral, 75 mg single dose, geometric mean).
`O=C(COc1ccc(Cl)cc1)NC12CC(c3nnc([C@H]4C[C@@H](OC(F)(F)F)C4)o3)(C1)C2` — result for “participants with headache”: 71.4% (human both sexes; oral, 260 mg once daily, 14 days).
`CC#CC(=O)N1CCC[C@H]1c1nc(-c2ccc(C(=O)Nc3ccccn3)cc2)c2c(N)nccn12`: “GSH adduct formation” 94% (PBS; 100 µM, 23 h, pH 7.45, 37 °C, together with: GSH 5 mM).
Under “diastolic blood pressure”, `C[C@@H](O)CCOC(=O)C[C@@H](C)O` is recorded as 63 mmHg (human; oral drink, dose not given, 120 min post dose, mean).
For `O=C(OC(C(F)(F)F)C(F)(F)F)N1CCN(Cc2cccc(Oc3ccccc3)c2)CC1`, the Ktrans was 0.027 min⁻¹ (PET blocking study; rhesus monkey, brain THA; 0.3 mg/kg, compound pretreatment, together with: [18F]T-401 tracer).
`Cc1ccc([C@@H]2O[C@H](CO)[C@@H](O)[C@H](O)[C@H]2O)cc1Cc1ccc(-c2ccc(F)cc2)s1` — result for “urinary calcium excretion change”: -42.8 mg (Japanese type 2 diabetes patients; 200 mg, day 4, 24 h urine collection; relative to: baseline).
For `O=C(Nc1nc2cccc(-c3ccc(CN4CCS(=O)(=O)CC4)cc3)n2n1)C1CC1`, “treatment-emergent adverse events” read 0% (measured: regurgitation; rheumatoid arthritis patients; oral, 30 mg once daily, 4 weeks, any relatedness).
`C[C@H]1CN(C(=O)CC#N)[C@]12CCN(c1ncnc3[nH]ccc13)C2`: “subjects with Paraesthesia” 0% (healthy human; oral, 6 mg single).
For `O=C(O)CN1CCCN2CCN(CC(=O)O)CCCN(CC1)Cc1cccc(n1)C2`, the intact complex was 98% (64Cu complex in rat plasma; 24 h, 37 °C).
For `CC[C@H](C)[C@H](NC(=O)[C@H](Cc1ccccc1)NC(=O)[C@H](CCC(=O)O)NC(=O)[C@H](CCCCNC(=O)COCCOCCNC(=O)COCCOCCNC(=O)CC[C@H](NC(=O)CCCCCCCCCCCCCCCCC(=O)O)C(=O)O)NC(=O)[C@H](C)NC(=O)[C@H](C)NC(=O)[C@H](CCC(N)=O)NC(=O)CNC(=O)[C@H](CCC(=O)O)NC(=O)[C@H](CC(C)C)NC(=O)[C@H](Cc1ccc(O)cc1)NC(=O)[C@H](CO)NC(=O)[C@H](CO)NC(=O)[C@@H](NC(=O)[C@H](CC(=O)O)NC(=O)[C@H](CO)NC(=O)[C@@H](NC(=O)[C@H](Cc1ccccc1)NC(=O)[C@@H](NC(=O)CNC(=O)[C@H](CCC(=O)O)NC(=O)C(C)(C)NC(=O)[C@@H](N)Cc1cnc[nH]1)[C@@H](C)O)[C@@H](C)O)C(C)C)C(=O)N[C@@H](C)C(=O)N[C@@H](Cc1c[nH]c2ccccc12)C(=O)N[C@@H](CC(C)C)C(=O)N[C@H](C(=O)N[C@@H](CCCNC(=N)N)C(=O)NCC(=O)N[C@@H](CCCNC(=N)N)C(=O)NCC(=O)O)C(C)C`, “QTcF change from baseline” read -0.7 ms (12-lead Holter ECG; healthy humans; subcutaneous, 1.5 mg once weekly, 12 h, steady state; relative to: placebo).
Under “participants with TEAE dry lips”, `O=C1CC[C@H](N2Cc3cc(N4CCN(CC5CCN(c6ccc([C@@H]7c8ccc(O)cc8CC[C@@H]7c7ccccc7)cc6)CC5)CC4)ccc3C2=O)C(=O)N1` is recorded as 0% (human; oral, 200 mg, together with: dabigatran etexilate 75 mg).
`CCCOc1ccc(NC(=O)CN2CCN(C)CC2)cc1-c1nc(CC)c(CC)c(=O)[nH]1` gave a flushing incidence of 20% (healthy Chinese men; 10 mg, together with: alcohol 0.5 g/kg).
Under “change in clinical chemistry or haematology parameter”, `CCc1cc(C(=O)NC)c2nccc(N3CCc4c(cc(Cn5ccnc5)cc4-c4cn(C)nc4C(F)(F)F)C3=O)c2c1` is recorded as 180% (measured: TBA; Sprague Dawley rat; oral, 50 mg/kg once daily, 7 days; relative to: vehicle).
For `CSc1cc(C)nc(SC)c1NC(=O)CN1CCN(CCSc2nc3ccccc3[nH]2)CC1.Cl`, tissue concentration read “not detected” (mouse, cerebrum; intranasal, 7 days daily, 120 min, 0.01 N HCl 50 µL, LLOQ 0.5 ng/g).
For `COC(=O)c1ccccc1Oc1nc(NC(C)C)nc(NC(C)C)n1`, the logD was 3.59 (octanol/buffer; pH 7.4).
`C[C@@H]1COCCN1c1cc(C2([S@](C)(=N)=O)CC2)nc(-c2cc[nH]c3nccc2-3)n1` has a Nasopharyngitis incidence of 0% (Japanese advanced solid tumour patients; oral, 160 mg twice daily, CTCAE grade ≥3).
`[O]=[Co].[O]=[Co][O][Co]=[O]` has a cobalt concentration of 5160 µg/L (rat, female, urine, 24-h collection; oral gavage, single, 300 mg/kg (220 mg Co/kg), day 1, vehicle 0.5% HPMC).
Under “systolic blood pressure change”, `CCN1/C(=C/C(C)=O)Sc2ccc(F)cc21` is recorded as 97.7 ± 3.8% (cynomolgus monkey; oral, 30 mg/kg, 24 h post-dose; relative to: pre-dose).
`CO[C@H]1C[C@@H]2CC[C@@H](C)[C@@](O)(O2)C(=O)C(=O)N2CCCC[C@H]2C(=O)O[C@H]([C@H](C)C[C@@H]2CC[C@@H](O)[C@H](OC)C2)CC(=O)[C@H](C)/C=C(\C)[C@@H](O)[C@@H](OC)C(=O)[C@H](C)C[C@H](C)/C=C/C=C/C=C/1C` gave a rectal temperature of 37.2 ± 0.2 °C (healthy adult horses; oral, 0.06 mg/kg, 72 h).
For `Cc1cc(C)c(CNC(=O)c2cc(Cl)c3c(c2C)O[C@@](C)([C@H]2CC[C@H](N(C)C)CC2)O3)c(=O)[nH]1`, “AST increased grade ≥3” read 0% (human relapsed/refractory NHL; oral, 200 mg once daily, onset day 1 to 14).
`O=C1CC[C@H](N2Cc3cc(N4CCN(CC5CCN(c6ccc([C@@H]7c8ccc(O)cc8CC[C@@H]7c7ccccc7)cc6)CC5)CC4)ccc3C2=O)C(=O)N1`: “total dose excreted” 92.9% (radiolabelled mass balance; Sprague-Dawley rat, female, urine and feces; oral, 20 mg/kg, up to 168 h).
For `Cc1cc([C@H]2C[C@H]3[C@@H](CF)SC(N)=N[C@@]3(c3ccc(F)cc3F)CO2)on1`, the brain concentration was 399 nM (male 129/SVE wild-type mouse, brain; subcutaneous, 100 mg/kg, 5 h).
For `CCn1c(SCC(=O)Nc2cccc(OC)c2)nnc1-c1ccncc1`, the logD was 1.96 (octanol/buffer; pH 7.4).
`C=CC(=O)NC1CCN(c2ncc3ncnc(Nc4ccc(Oc5ccc6c(c5)ncn6C)c(C)c4)c3n2)CC1`: “adverse events incidence” 0% (measured: conjunctival haemorrhage; human male; oral, dose not given, CTCAE on-treatment AEs).
Under “patients, drug-related laboratory TEAEs”, `CC(C)C[C@H](NC(=O)[C@@H](Cc1c[nH]c2ccccc12)NC(=O)[C@H](Cc1ccc(O)cc1)NC(=O)[C@H](CO)NC(=O)[C@H](Cc1c[nH]c2ccccc12)NC(=O)[C@H](Cc1c[nH]cn1)NC(=O)[C@@H]1CCC(=O)N1)C(=O)N[C@@H](CCCNC(=N)N)C(=O)N1CCC[C@H]1C(=O)NCC(N)=O` is recorded as 13.6% (Chinese CPP children, overall; intramuscular, 22.5 mg, 12 months, day 1, month 6).
Under “patients with TEAEs”, `COc1cc2nccc(Oc3ccc(NC(=O)c4cc5c(n(-c6ccccc6)c4=O)CCCC5=O)nc3)c2cc1OC` is recorded as 100% (human, relapsed/refractory AML; oral, dose not given, all dose groups combined).
The flushing incidence of `CCO` is reported as 61.1% (human).
`OC[C@H]1O[C@@H](c2ccc(Cl)c(Cc3ccc(O[C@H]4CCOC4)cc3)c2)[C@H](O)[C@@H](O)[C@@H]1O` — result for “change in Sodium”: 1 mEq/L (Japanese type 1 diabetes patients, blood; 25 mg, day 28; relative to: baseline).
`Cc1cc(-c2nccc3c2ccn3CC(=O)Nc2ccc(-c3cnccn3)cn2)ccn1`: “skin disorder TEAEs” 11.1% (healthy human volunteers; oral, 15 mg once daily, 14 days, multiple ascending dose).
`CCOC(=O)[C@H](CCc1ccccc1)N[C@@H](C)C(=O)N1[C@H](C(=O)O)C[C@H]2CCCC[C@@H]21` has a freeze-thaw stability of 103 ± 14.7% (human plasma; 300 pg/mL, 3 cycles at -20 °C; relative to: nominal).
`CC(C)c1nc(CN(C)C(=O)N[C@@H](CCN2CCOCC2)C(=O)N[C@H](CC[C@H](Cc2ccccc2)NC(=O)OCc2cncs2)Cc2ccccc2)cs1` — result for “grade 1 TEAE”: 30.8% (human; oral, 150 mg, drug interaction trial).
`COc1cccc(-n2nnnc2SCC(=O)Nc2c(C)cc(C)cc2C)c1` gave a logD of 3.98 (octanol/buffer; pH 7.4).
For `CNC(=O)c1ccc(-c2cnc3ncc(Cc4ccc5ncccc5c4)n3n2)cc1F`, the Dysphonia patients was 1% (Japanese patients; oral, 400 mg twice daily, any grade).
With `C#C[C@]1(O)CC[C@H]2[C@@H]3CCc4cc(O)ccc4[C@H]3CC[C@@]21C` the intrinsic clearance was 149 µL/min/mg (substrate depletion; Sprague-Dawley rat, male, liver S9; 3 µM, pH 7.4).
With `COc1nc(-c2cc(C)c(N[C@@H](C)c3c(F)cc(F)cc3F)nn2)ccc1-n1cnc(C)c1` the brain concentration was 13200 ng/g (C57BL/6J mice, male, brain; oral, 50 mg/kg daily for 9 days, 4 h after last dose).
`CC(C)n1c(Nc2cccnc2)nc2cnc(Nc3ccc(N4CCN(C)CC4)cc3)nc21` — result for “subjects with TEAE”: 11.9% (measured: creatine phosphokinase increased; healthy human, male; oral, dose not given, CTCAE grade 1-3).
For `C[C@@]1(C2CCCCC2)COC[C@@H](c2ccc(F)cc2Cl)N1`, the logD was over 4.7 (shake-flask, 1-octanol/buffer; pH 7.4).
The fu of `COc1ccc2c(c1)CN(C(=O)CCN1CCC(Cc3ccccc3)CC1)CC[S@@+]2[O-]` is reported as 0.349 (human plasma; 10000 ng/mL).
The plasma concentration of `CCN1CCN(Cc2ccc(NC(=O)c3ccc(C)c(NC(=O)c4cncc(-c5cccs5)c4)c3)cc2C(F)(F)F)CC1` is reported as 9 ng/mL and 20 ng/mL and 8 ng/mL (LC-MS/MS; C57BL/6 mouse, plasma; intraperitoneal, 30 mg/kg single dose, 24 h).
`NC1(C(=O)N[C@@H](CCO)c2ccc(Cl)cc2)CCN(c2nc[nH]c3nccc2-3)CC1` has a Tmax of 2 h (LC-MS/MS, non-compartmental; human patients, plasma; 160/400 mg cohort, cycle 0, median, together with: enzalutamide).
For `C[C@@H]1COCCN1c1cc(C2([S@](C)(=N)=O)CC2)nc(-c2cc[nH]c3nccc2-3)n1`, lymphocyte count read “no effect” (female BALB/c mice; dose not given, 48 h, together with: total body irradiation 6 Gy; relative to: irradiation alone).
For `OCc1nc2ccc(NCc3ccc(C(F)(F)F)cc3)cc2[nH]1`, the tissue concentration was 183 ± 37.6 ng/g (Balb/c mouse, male, lungs; oral, 10 mg/kg, 6 h).
`Cc1ccc([C@H]2N[C@H](c3ccc(C(C)(C)C)cc3)CO[C@@H]2C)cn1` has a logD of over 4.7 (shake-flask, 1-octanol/buffer; pH 7.4).
For `Cc1ccc(Sc2ccccc2N2CCNCC2)c(C)c1`, “participants with TEAE” read 0% (measured: Thirst; healthy adult men; oral, 40 mg single dose, 10 day).
